Assay results of several laboratories.
Lines come from different studies, so protocols differ. ± gives the spread as reported.
DRD1: D(1A) dopamine receptor (DRD1, Homo sapiens, UniProt P21728)
Sequence of UniProt P21728 (whole entry, looked up): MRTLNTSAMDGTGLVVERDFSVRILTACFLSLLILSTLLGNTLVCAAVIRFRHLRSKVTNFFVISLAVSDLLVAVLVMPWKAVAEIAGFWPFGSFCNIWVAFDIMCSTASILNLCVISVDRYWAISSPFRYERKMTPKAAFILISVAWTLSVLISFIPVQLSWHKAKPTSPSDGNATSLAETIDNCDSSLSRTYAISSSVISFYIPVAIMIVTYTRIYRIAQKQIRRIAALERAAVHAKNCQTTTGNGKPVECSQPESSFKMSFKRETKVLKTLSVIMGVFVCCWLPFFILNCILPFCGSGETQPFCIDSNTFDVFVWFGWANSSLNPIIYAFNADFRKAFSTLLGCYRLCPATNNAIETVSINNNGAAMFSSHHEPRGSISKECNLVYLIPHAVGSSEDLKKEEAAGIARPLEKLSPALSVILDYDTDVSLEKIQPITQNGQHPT
HDAC11: Histone deacetylase 11 (HDAC11, Homo sapiens, UniProt Q96DB2)
Sequence of UniProt Q96DB2 (whole entry, looked up): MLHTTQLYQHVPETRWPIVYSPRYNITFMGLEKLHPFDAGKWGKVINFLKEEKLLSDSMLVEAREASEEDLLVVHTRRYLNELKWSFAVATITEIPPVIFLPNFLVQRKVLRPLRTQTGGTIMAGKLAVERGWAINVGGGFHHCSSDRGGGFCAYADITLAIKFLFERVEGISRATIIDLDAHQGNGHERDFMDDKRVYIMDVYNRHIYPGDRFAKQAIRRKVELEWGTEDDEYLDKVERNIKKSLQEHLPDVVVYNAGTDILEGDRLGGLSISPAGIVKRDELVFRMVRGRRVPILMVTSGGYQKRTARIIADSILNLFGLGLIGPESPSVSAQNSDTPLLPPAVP
CNR2: Cannabinoid receptor 2 (CNR2, Homo sapiens, UniProt P34972)
Sequence of UniProt P34972 (whole entry, looked up): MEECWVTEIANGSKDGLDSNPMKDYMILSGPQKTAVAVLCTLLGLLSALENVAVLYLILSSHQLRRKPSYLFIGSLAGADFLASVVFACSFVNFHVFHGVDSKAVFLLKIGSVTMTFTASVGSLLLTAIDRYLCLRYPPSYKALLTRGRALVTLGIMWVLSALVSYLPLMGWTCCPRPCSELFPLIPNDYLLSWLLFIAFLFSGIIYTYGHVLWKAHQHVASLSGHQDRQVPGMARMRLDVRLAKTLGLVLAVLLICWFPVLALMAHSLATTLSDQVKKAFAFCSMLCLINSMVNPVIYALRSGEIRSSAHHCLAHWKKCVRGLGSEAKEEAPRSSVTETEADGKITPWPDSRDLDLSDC
MAOA: Amine oxidase [flavin-containing] A (MAOA, Homo sapiens, UniProt P21397)
Sequence of UniProt P21397 (whole entry, looked up): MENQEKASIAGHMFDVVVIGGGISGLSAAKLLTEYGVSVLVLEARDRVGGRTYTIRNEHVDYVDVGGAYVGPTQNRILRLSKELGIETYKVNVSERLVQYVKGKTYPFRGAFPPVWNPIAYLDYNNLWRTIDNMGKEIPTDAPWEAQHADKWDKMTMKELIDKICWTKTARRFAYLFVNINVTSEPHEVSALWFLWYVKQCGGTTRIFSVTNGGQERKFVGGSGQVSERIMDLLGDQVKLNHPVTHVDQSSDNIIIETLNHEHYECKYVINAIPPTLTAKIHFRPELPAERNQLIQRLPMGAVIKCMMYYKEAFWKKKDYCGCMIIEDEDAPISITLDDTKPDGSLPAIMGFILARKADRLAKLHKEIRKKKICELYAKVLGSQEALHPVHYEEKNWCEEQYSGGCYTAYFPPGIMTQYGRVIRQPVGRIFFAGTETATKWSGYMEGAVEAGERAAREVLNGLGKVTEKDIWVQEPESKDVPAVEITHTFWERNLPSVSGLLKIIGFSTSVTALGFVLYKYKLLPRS
cah: cah (Neisseria gonorrhoeae, UniProt Q50940)
Sequence of UniProt Q50940 (whole entry, looked up): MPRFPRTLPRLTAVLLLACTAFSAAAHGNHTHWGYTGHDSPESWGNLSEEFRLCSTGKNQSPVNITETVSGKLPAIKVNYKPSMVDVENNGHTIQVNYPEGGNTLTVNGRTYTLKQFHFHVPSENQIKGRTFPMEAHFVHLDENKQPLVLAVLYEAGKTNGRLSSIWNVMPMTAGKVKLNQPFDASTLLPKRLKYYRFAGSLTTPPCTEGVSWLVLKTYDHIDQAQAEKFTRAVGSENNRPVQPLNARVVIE
NAA40: N-alpha-acetyltransferase 40 (NAA40, Homo sapiens, UniProt Q86UY6)
Sequence of UniProt Q9H3N8 (whole entry, looked up): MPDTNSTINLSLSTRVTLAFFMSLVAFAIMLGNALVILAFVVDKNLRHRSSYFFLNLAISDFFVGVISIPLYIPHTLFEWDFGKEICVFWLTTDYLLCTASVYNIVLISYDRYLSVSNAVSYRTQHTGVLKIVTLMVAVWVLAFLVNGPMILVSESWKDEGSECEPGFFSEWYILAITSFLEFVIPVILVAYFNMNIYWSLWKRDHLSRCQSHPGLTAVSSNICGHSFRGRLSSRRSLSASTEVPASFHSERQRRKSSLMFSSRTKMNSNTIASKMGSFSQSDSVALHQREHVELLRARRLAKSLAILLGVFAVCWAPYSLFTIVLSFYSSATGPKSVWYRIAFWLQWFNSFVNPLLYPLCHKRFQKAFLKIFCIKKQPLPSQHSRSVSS
Sequence of UniProt P07947 (whole entry, looked up): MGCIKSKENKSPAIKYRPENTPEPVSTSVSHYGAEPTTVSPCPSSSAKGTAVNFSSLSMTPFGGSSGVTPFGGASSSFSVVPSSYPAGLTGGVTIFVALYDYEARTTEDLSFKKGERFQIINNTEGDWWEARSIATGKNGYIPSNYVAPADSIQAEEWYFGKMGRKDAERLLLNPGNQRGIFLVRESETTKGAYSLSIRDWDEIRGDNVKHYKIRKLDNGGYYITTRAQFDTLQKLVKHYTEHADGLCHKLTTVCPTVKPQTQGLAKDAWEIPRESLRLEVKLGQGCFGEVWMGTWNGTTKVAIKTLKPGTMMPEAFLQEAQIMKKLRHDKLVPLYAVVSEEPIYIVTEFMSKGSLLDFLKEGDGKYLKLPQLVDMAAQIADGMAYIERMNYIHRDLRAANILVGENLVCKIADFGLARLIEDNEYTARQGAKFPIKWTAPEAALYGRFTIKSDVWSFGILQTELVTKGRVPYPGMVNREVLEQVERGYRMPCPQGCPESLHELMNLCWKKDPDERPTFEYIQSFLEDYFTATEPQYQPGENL
Sequence of UniProt P30968 (whole entry, unmodified, looked up): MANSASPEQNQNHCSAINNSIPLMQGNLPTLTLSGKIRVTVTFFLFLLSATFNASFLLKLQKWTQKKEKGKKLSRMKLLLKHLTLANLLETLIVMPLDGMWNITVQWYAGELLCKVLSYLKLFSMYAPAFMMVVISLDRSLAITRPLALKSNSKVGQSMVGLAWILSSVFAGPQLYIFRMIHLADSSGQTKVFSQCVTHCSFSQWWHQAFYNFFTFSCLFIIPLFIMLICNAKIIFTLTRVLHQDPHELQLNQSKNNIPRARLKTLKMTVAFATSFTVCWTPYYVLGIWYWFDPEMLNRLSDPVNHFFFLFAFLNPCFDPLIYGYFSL
Sequence of UniProt Q9NXA8 (whole entry, looked up): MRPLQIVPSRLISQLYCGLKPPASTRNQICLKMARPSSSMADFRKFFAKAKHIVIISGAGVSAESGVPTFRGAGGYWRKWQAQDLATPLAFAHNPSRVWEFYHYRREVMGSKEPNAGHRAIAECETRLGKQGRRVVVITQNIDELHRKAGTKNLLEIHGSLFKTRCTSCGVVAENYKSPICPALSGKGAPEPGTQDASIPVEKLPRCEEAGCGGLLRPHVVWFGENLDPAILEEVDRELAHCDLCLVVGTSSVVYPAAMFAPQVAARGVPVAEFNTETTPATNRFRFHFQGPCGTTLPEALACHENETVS
Sequence of UniProt Q6DWJ6 (whole entry, looked up): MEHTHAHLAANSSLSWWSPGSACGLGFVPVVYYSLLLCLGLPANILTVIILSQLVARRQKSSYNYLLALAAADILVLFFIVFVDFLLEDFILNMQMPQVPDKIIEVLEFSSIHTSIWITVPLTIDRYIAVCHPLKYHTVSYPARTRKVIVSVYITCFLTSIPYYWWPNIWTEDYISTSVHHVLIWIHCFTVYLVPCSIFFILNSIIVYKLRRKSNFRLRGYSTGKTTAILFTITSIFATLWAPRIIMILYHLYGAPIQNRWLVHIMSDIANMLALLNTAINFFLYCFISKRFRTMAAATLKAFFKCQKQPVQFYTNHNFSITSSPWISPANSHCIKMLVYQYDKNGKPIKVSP
Sequence of UniProt Q92800 (whole entry, looked up): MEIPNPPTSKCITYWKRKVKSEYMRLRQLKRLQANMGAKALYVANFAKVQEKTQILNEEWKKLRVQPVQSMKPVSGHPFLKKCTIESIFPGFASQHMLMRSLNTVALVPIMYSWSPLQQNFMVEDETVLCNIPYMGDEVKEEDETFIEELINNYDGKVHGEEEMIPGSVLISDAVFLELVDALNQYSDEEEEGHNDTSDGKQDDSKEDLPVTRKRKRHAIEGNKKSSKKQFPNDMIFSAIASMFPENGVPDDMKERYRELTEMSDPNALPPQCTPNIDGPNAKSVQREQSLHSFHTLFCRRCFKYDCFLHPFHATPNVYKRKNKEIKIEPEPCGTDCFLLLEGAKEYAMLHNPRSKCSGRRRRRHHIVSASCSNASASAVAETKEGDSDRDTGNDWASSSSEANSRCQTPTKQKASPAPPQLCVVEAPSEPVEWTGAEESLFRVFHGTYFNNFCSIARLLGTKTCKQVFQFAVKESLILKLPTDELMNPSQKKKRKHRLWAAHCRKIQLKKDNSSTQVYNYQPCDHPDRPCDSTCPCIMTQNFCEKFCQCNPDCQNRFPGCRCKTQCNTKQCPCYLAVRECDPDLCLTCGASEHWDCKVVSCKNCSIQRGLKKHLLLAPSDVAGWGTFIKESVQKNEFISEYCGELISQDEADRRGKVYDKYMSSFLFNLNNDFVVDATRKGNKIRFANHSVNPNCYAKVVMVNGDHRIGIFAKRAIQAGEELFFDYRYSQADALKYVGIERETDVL

Structure (SMILES) | target | read-out | mode | method | setting | added | Ki [nM]
Cc1ccnc(OC[C@H]2CN(CCN3CCc4ccccc43)CCO2)c1 | DRD1 | binding |  |  |  | [3H]SCH23390 | > 10000
CC(C)c1ccc(OS(=O)(=O)Oc2cncc(C(=O)NO)c2)cc1 | HDAC11 |  |  |  |  |  | 2080
CCOC(=O)[C@H](Cc1ccc(OC)cc1)NC(=O)c1ccc(C2CC2)c(Cc2ccc(F)cc2)n1 | CNR2 | ligand displacement |  | radioligand | cell membranes |  | 34
CCc1c(Cl)cccc1N1CCN(C[C@H](F)CCNC(=O)c2cc3ccccc3[nH]2)CC1 | DRD1 | ligand displacement |  | radioligand | cell membranes |  | > 10000
O=C(c1cccc(N=Nc2ccc(OC3CC(N4CCCCC4)C3)cc2)c1)N1CCCC1 (stereo not drawn) | Histamine H4 receptor (HRH4, Homo sapiens, UniProt Q9H3N8) | ligand displacement |  | radioligand |  |  | > 10000
CCOC(=O)C(CC)(CCCSCCOCCOCCOCCOCCN)NC(=O)c1ccc(C2CC2)c(Cc2ccc(F)cc2)n1 (stereo not drawn) | CNR2 | ligand displacement |  | radioligand | cell membranes |  | 2.6
Cn1ccc2c(N3CCN(CCCCOc4ccc5c(c4)NC(=O)CC5)CC3)cccc21 | DRD1 | ligand displacement |  | radioligand |  |  | > 10000
CC(C)c1ccc(/C=C/C(=O)c2ccc(Br)s2)cc1 | MAOA | enzyme activity | inhibitor |  |  |  | 76
Cc1nc(-c2c[nH]c(C(=O)Nc3ncccc3O)c2)cs1 | Serine protease 1 (PRSS1, Homo sapiens, UniProt P07477) | enzyme activity | inhibitor | absorbance |  |  | 203000
CC[C@H](C)[C@H](NC(=O)[C@H](CCCNC(=N)N)NC(=O)[C@H](CCCNC(=N)N)NC(=O)[C@H](CC(C)C)NC(=O)[C@H](Cc1ccccc1)NC(=O)CNC(=O)CN)C(=O)N[C@@H](CCCNC(=N)N)C(=O)N1CCC[C@H]1C(=O)N[C@@H](CCCCN)C(=O)N[C@@H](CC(C)C)C(=O)N[C@@H](CCCCN)C(N)=O | Probable G-protein coupled receptor 139 (GPR139, Homo sapiens, UniProt Q6DWJ6) | ligand displacement |  | radioligand | cell membranes |  | 69.2
CN1CC[C@@H](COc2cnc(C#N)cc2-c2ccn3nc(NC(=O)C4CC4)cc3c2)C1 | Tyrosine-protein kinase Yes (YES1, Homo sapiens, UniProt P07947) | enzyme activity | inhibitor |  |  |  | 85
CCCCCCCCCCCC(=O)NC1CCOC1=O (stereo not drawn) | cah | enzyme activity | inhibitor | stopped-flow |  |  | > 100000
COC1CN([C@H]2CC[C@H]([C@@]3(C)Oc4c(Cl)cc(C(=O)NCc5c(SC)cc(C)[nH]c5=O)c(C)c4O3)CC2)C1 | Histone-lysine N-methyltransferase EZH1, in PRC2 complex (EZH1, Homo sapiens, UniProt Q92800) |  |  | differential scanning fluorimetry | extrapolated from Tm | activator peptide | 0.0067
Cc1cc(O)c2c(c1O)C(=O)c1cc(O)cc(O)c1C2=O | MAOA | enzyme activity | inhibitor |  |  |  | 5060
CC(C)(COP(=O)(O)OP(=O)(O)OC[C@H]1O[C@@H](n2cnc3c(N)ncnc32)[C@H](O)[C@@H]1OP(=O)(O)O)[C@@H](O)C(=O)NCCC(=O)NCCSCCC(=O)N[C@@H](CO)C(=O)NCC(=O)N[C@@H](CCCNC(=N)N)C(=O)NCC(=O)N[C@@H](CCCCN)C(=O)NCCCC[C@H](NC(=O)CC[C@@H]1NC(=O)[C@@H](CCCNC(=N)N)NC(=O)[C@H](CCCNC(=N)N)NC(=O)[C@@H](CCCNC(=N)N)NC(=O)[C@H](CCCNC(=N)N)NC(=O)[C@H](Cc2csc3ccccc23)NC(=O)[C@@H](Cc2ccccc2)NC(=O)[C@H](Cc2ccccc2)NC1=O)C(N)=O | NAA40 | enzyme activity | inhibitor | fluorescence |  |  | 23
CCCCCCC1CCCC(=O)O1 (stereo not drawn) | cah | enzyme activity | inhibitor | stopped-flow |  |  | 41800
CCOC(=O)[C@@](CC)(CCCSCCOCCOCCNC(=O)OC(C)(C)C)NC(=O)c1ccc(C2CC2)c(Cc2ccc(F)cc2)n1 | CNR2 | ligand displacement |  | radioligand | cell membranes |  | 151
C=C1C[C@]2(C(=O)OC)C=C(C(=O)Nc3cccc(C(=O)Nc4ccc(Nc5nccc(-c6cccnc6)n5)c(C)c4)c3)C(=O)[C@H]1C2 | Mitogen-activated protein kinase 8 (MAPK8, Homo sapiens, UniProt P45983) |  |  | SPR two-step binding model | wild-type protein surface |  | 1.1
CCOC(=O)[C@](CC)(CCCSCCOCCOCCNC(=O)CCCCCN1C(=CC=CC=CC2=[N+](C)c3ccc4ccccc4c3C2(C)C)C(C)(C)c2c1ccc1ccccc21)NC(=O)c1ccc(C2CC2)c(Cc2ccc(F)cc2)n1 | CNR2 | ligand displacement |  | radioligand | cell membranes |  | 14
CC(=O)N[C@@H](CC(C)C)C(=O)NCC(=O)N[C@@H](CCCCNC(=O)CCC(=O)O)C(=O)Nc1ccc2c(C)cc(=O)oc2c1 | NAD-dependent protein deacylase sirtuin-5, mitochondrial (SIRT5, Homo sapiens, UniProt Q9NXA8) | desuccinylation | substrate inhibition |  |  |  | ~700000
NC(=O)CNC(=O)[C@@H]1CCCN1C(=O)[C@H](Cc1ccc(O)cc1)NC(=O)[C@H](Cc1c[nH]c2ccccc12)NC(=O)CNC(=O)[C@H](Cc1c[nH]cn1)NC(=O)[C@H](CO)NC(=O)[C@H](Cc1c[nH]c2ccccc12)NC(=O)[C@H](Cc1c[nH]cn1)NC(=O)[C@@H]1CCC(=O)N1 | Gonadotropin-releasing hormone receptor (GNRHR, Homo sapiens, UniProt P30968, del191-191) | binding |  | NanoBRET |  | 10 nM sCy5-D-Lys6-GnRH | 21 ± 5.3
CCOC(=O)C(CC)(CCCSCCOCCNC(=O)OC(C)(C)C)NC(=O)c1ccc(C2CC2)c(Cc2ccc(F)cc2)n1 (stereo not drawn) | CNR2 | ligand displacement |  | radioligand | cell membranes |  | 112
O=C(NO)c1cncc(OS(=O)(=O)Oc2ccc(Oc3ccccc3)cc2)c1 | HDAC11 |  |  |  |  |  | 1490
C=CC[C@@H]1NC(=O)CCSCc2ccc(cc2)CSCCCNC(=O)[C@H](CCCCCC(=O)N(O)CCCCCC)NC1=O | HDAC11 | enzyme activity | inhibitor | fluorescence |  |  | 310
Cc1cc(O)c2c(c1)C(=O)c1c(O)c(O)cc(O)c1C2=O | MAOA | enzyme activity | inhibitor |  |  |  | 10500
CC(C)(COP(=O)(O)OP(=O)(O)OC[C@H]1O[C@@H](n2cnc3c(N)ncnc32)[C@H](O)[C@@H]1OP(=O)(O)O)[C@@H](O)C(=O)NCCC(=O)NCCSCC(=O)N[C@@H](CO)C(=O)NCC(=O)N[C@@H](CCCNC(=N)N)C(=O)NCC(=O)N[C@@H](CCCCN)C(N)=O | NAA40 | enzyme activity | inhibitor | fluorescence |  |  | 58
CCOC(=O)[C@](CC)(CCCSCCOCCOCCN)NC(=O)c1ccc(C2CC2)c(Cc2ccc(F)cc2)n1 | CNR2 | binding |  |  |  |  | 2.7 ± 0.9
NCCCC[C@@H](NN)C(=O)O | Inducible lysine decarboxylase (Hafnia alvei, UniProt G9Y9L1) |  |  |  |  |  | 4200 ± 1000
CCOC(=O)C(CC)(CCCSCCOCCOCCN=[N+]=[N-])NC(=O)c1ccc(C2CC2)c(Cc2ccc(F)cc2)n1 (stereo not drawn) | CNR2 | ligand displacement |  | radioligand | cell membranes |  | 60
CCCCCCC(=O)N[C@H]1CCOC1=O | cah | enzyme activity | inhibitor | stopped-flow |  |  | > 100000

For quick reference, copied from above:
Structure (SMILES) | target | read-out | mode | method | setting | added | Ki [nM]
O=C(c1cccc(N=Nc2ccc(OC3CC(N4CCCCC4)C3)cc2)c1)N1CCCC1 (stereo not drawn) | Histamine H4 receptor (HRH4, Homo sapiens, UniProt Q9H3N8) | ligand displacement |  | radioligand |  |  | > 10000
CCOC(=O)C(CC)(CCCSCCOCCNC(=O)OC(C)(C)C)NC(=O)c1ccc(C2CC2)c(Cc2ccc(F)cc2)n1 (stereo not drawn) | CNR2 | ligand displacement |  | radioligand | cell membranes |  | 112
CCOC(=O)[C@H](Cc1ccc(OC)cc1)NC(=O)c1ccc(C2CC2)c(Cc2ccc(F)cc2)n1 | CNR2 | ligand displacement |  | radioligand | cell membranes |  | 34
